Measurements collected from several papers.
Protocols differ between the studies behind these lines. Several values in a cell are separate wells, animals, samples, runs or records. ± gives the spread as reported.
Chain of UniProt P18177 (whole entry, looked up): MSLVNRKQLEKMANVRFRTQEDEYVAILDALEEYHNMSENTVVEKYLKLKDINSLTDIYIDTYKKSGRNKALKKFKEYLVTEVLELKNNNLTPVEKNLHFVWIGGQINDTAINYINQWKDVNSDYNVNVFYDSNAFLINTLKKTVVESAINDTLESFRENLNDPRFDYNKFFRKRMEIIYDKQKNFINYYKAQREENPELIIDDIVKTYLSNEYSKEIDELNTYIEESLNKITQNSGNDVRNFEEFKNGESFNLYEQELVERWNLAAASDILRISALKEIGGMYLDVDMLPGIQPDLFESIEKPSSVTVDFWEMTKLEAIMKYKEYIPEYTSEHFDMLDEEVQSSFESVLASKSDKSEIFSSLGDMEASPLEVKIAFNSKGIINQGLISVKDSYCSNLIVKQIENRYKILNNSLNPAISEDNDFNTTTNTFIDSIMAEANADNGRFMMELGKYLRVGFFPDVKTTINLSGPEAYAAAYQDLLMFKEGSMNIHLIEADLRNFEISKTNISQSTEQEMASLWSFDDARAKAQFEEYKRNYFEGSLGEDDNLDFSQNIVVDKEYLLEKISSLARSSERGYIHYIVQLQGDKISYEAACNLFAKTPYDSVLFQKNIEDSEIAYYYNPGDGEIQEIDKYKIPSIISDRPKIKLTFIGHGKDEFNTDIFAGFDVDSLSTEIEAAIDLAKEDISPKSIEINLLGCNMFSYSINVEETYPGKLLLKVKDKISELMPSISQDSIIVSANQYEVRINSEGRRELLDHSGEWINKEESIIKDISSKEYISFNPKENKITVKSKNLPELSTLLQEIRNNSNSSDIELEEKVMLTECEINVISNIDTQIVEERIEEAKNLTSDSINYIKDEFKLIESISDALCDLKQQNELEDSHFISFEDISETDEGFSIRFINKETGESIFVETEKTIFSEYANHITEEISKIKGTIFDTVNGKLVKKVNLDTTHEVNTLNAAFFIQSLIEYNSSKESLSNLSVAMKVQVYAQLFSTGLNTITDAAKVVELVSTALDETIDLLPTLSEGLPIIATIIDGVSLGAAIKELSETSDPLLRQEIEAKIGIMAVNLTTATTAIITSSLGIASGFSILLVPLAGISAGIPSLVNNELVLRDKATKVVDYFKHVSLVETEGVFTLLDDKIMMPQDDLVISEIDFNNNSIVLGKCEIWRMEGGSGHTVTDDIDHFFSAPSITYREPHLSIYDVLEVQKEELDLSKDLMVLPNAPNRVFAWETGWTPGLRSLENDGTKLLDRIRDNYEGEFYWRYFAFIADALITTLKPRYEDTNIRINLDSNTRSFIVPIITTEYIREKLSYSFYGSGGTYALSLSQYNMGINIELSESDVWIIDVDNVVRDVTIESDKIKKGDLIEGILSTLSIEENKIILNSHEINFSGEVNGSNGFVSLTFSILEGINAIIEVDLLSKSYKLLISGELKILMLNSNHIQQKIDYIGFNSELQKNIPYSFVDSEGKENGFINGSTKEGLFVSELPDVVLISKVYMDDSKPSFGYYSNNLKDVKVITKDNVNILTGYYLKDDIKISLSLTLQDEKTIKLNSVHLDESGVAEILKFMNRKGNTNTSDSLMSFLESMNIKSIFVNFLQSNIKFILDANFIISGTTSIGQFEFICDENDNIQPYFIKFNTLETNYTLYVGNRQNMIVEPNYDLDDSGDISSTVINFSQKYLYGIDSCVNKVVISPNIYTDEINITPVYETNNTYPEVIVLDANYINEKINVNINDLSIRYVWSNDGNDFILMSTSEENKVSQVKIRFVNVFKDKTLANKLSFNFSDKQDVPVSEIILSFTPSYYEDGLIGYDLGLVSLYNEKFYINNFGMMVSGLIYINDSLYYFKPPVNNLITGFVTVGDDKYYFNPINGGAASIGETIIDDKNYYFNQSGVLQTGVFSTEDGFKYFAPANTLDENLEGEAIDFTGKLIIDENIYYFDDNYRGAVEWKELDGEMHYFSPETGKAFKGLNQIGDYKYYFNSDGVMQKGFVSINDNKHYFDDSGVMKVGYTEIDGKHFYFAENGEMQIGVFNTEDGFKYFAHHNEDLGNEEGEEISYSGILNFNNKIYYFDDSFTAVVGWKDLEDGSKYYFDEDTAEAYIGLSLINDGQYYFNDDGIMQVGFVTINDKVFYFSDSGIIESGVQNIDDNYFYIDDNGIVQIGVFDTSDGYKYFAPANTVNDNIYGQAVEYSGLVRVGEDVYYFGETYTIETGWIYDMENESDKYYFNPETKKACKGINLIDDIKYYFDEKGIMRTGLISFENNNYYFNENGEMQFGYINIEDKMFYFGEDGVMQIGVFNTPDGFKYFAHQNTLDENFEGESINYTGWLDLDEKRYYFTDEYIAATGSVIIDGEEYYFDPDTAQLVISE

Substance | tested on | test | system | conditions | scale | measurement | result
Nc1nc(Nc2ccccc2)sc1C(=O)c1ccccc1Cl | MERS-CoV spike VSV pseudovirus | pseudovirus entry |  | 10 µM |  | inhibition | 51%
inositol hexakisphosphate | Toxin B (tcdB, Clostridioides difficile, UniProt P18177) | toxin autoprocessing, activator |  |  |  | EC50 | 0.18 ± 0.02 µM
COc1cc2ncnc(Nc3cccc(Cl)c3)c2cc1OC | Monkeypox virus | viral infection | replication-deficient | 0.137 µM | baseline: untreated | infection | 103% and 99.4% and 106%
CC(C)C(=O)Nc1ncncc1-c1cn([C@@H]2O[C@](F)(COC(=O)C(C)C)[C@@H](OC(=O)C(C)C)[C@H]2OC(=O)C(C)C)cn1 | Zaire ebolavirus | viral replication, reporter virus | Huh-7 | 72 h |  | IC50 | > 100 µM
(±)-nornicotine | Haemonchus contortus | larval migration | Weybridge susceptible L3 | 20 min |  | IC50 | 775 ± 36.4 µM
O=c1ccn([C@@H]2O[C@](F)(CO)[C@@H](O)[C@H]2O)c(=O)[nH]1 | Mammarenavirus lassaense | viral replication | HeLa, clade II Nigeria-322 |  |  | EC50 | 2.14 µM
LiaS fragment T120A (Enterococcus faecium) | LiaR peptide residues 49-57, FITC label (Enterococcus faecium) | MST |  | no ATP, with: FITC peptide 84 nM |  | Kd | > 1000 µM
COc1nc(N)ncc1-c1cn([C@@H]2O[C@](F)(CO)[C@@H](O)[C@H]2O)cn1 | Zaire ebolavirus | viral replication, reporter virus | Huh-7 | 72 h |  | IC50 | > 100 µM

Repeated from above:
Substance | tested on | test | system | conditions | scale | measurement | result
inositol hexakisphosphate | Toxin B (tcdB, Clostridioides difficile, UniProt P18177) | toxin autoprocessing, activator |  |  |  | EC50 | 0.18 ± 0.02 µM
